# Measured values pooled from the literature.
# A part holds a random share of what one study measured.

# Series 1
# Target: Fragile X messenger ribonucleoprotein 1, C-terminal low-complexity region (Fmr1, Mus musculus, UniProt P35922)
# Technique: RNA Bind-n-Seq
# Molecule type: RNA
# Medium: in vitro
# Tested at: 200 nM
# Notes: whole 134-nt RNA, ends assumed
# Added: 150 mM KCl
# Reference: input library
# Reading: higher = stronger binding
# All sequences stand within: GGGAGUUCUACAGUCCGACGAUC … UGGAAUUCUCGGGUGUCAAGG
Oligonucleotide,log2 enrichment
CCUGUGCUACACAUCGUAUGUACCGAAUCGGUUUUUUUGGGGUUUUUUUGGGUUUUUUUGGAAAGUAUUAUGUUACGCCGUUCGGAUCUG,-0.566
AAGUCCUGUGCUACACAUCGUAUGUACCGAAUCGGUUUUUUUGGUUUGGAAAAAGGAAAGUAUUAUGUUACGCCGUUCGGAUCUGCACUU,-1.15
AAGUCCUGUGCUACACAUCGUAUGUACCGAAUCGGGGUUUGGGGAGGGGAAAGGGGAAAGUAUUAUGUUACGCCGUUCGGAUCUGCACUU,0.768
GUCCUGUGCUACACAUCGUAUGUACCGAAUCAAAUUUAAAUUUUUAAACCCCCCCAAAAAAGUAUUAUGUUACGCCGUUCGGAUCUGCAC,0.257
CACAGACAACACGCACCCACACAGACACAGAGGGAAGGGGUUGCGAUGGGGACAGGGUGCACAGCAGGGCGGGGUAGGACCCCAGCCCCU,0.864

# Series 2
# Target: RNA binding protein fox-1 homolog 2, RRM domain, GST-SBP tag (RBFOX2, Homo sapiens, UniProt O43251-10, residues 100-194)
# Technique: RNA Bind-n-Seq
# Molecule type: RNA
# Medium: in vitro
# Tested at: 365 nM
# Notes: natural RNA segment, single round, ends assumed
# Reference: no-protein control
# Reading: higher = stronger binding
# All sequences stand within: GGGAGUUCUACAGUCCGACGAUC … UGGAAUUCUCGGGUGCCAA
# Residues (chain): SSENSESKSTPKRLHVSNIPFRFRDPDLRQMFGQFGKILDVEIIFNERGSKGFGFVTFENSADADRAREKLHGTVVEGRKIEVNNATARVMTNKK
Oligonucleotide,RBNS enrichment (R)
UGUCACGUUGCAUUCAUGUUCACCUCCUGAUUUAAGUAUCUCGGGUGUGCCCAGCCACUAAAGCACUCUGGACUAAUCGCUAAAGAGAAGCAACGUGGGGGGUGGGGUUG,0.322
GGCAGGCAGGGAGAGAAGACGCCUGGGCCUCUCCAUUGUUUGUUUCCCAGGGUGAUUUCCUCAGUGCACAGGCAGCUCGAGAUGGAGGGAGGACAGCCACCAACUAGCUC,0.676
UCUAUCCCAGUUGGGUUCAGACUGCUGUGACUGUGGACACGAUGCUCCUUGUUCUGGGCUCCAGUUUUCCCAUUUGUGAGAUGAGGCAACUUCCAAUGCUUCUCUAGGCC,0.209
AUCUUGGAGAACCACAAUGGAUUCUUCUGUCUCUAUACUUUCUGGGGUUCUUUCCCCUCCCUCUCAUGAGAGUAAAGUCCCCAGCAGAUUUGAGUGAGUCAGGGGAAACA,0.369
UUGAGACAAUUUCUCUCUUGUUGCCUAGGCAGUGCAGUGGCGCGAUCUCAGCUCCCUGCAACUUCUGCCUCCCAGGUUCAAGCGAUUCUCCUGCCUUAGCCUCCUGAGUA,0.182
CAGAAGUUUGAAUCAGAGGUCUGAGUGACCUCUUUUGUGGCUGUUCUUGAUGGUUUCCAGGCCUCGUUAUGCAUGGUUUGCUUGAUGCCCAUUUUUUGUGCCUUGUGCUG,18.1
GGAUGUCCCUUGGGUCAGAGGUCAUCCUUUCCCUCUCUCCUGUUAUCAGAGGCAAAGGAAGGUCUACAGGCAUCAAUGAGGGCAAAGGAGGGGGUCUCCAGACUCCACUG,0.318
UGAGUCUGAAAUUAGUGUUAAAGAAGUGUGGUGCCUGAUGUUAUAACAACACCUCAUUCUUAACUGUGUGGCCAAUGUCAGGUAUACCAAAGCAUUCCUCUGACUGCUUU,0.446
GAGAAGCUGAGUCUUCUGCAUCAGAUUAUUGCAACAUUUAACCUGAAUUUAAAAGCACACGAAACAAGGUGUCAAUGGGAAUCUCGCGGCCAACGCCCCCAGAUGUAGGG,2.09

# Series 3
# Target: Centromere-binding protein 1, full length, His-tagged (CBF1, Saccharomyces cerevisiae, UniProt P17106, residues 1-351)
# Chain of UniProt P17106 (whole entry, looked up): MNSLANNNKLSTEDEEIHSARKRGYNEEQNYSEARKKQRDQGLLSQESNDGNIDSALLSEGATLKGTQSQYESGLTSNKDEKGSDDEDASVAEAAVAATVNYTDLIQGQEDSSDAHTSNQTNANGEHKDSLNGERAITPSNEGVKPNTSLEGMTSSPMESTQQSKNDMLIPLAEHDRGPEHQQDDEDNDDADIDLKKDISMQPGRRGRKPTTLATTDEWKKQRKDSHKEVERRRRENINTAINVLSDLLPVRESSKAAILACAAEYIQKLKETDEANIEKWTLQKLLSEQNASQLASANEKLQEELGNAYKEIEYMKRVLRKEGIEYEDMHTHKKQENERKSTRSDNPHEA
# Technique: competition protein-binding microarray
# Molecule type: double-stranded DNA, one strand shown
# Medium: in vitro
# Tested at: 2 µM
# Notes: whole 60-bp probe, lowest competitor level
# Added: Pho4 competitor, 0.05 µM
# Reading: higher = stronger binding
# All sequences stand within: … GTCTTGATTCGCTTGACGCTGCTG
Oligonucleotide,fluorescence intensity [a.u.]
TCAGGATCTGGCTGGCACATGATGCGGAAGCAGCGG,299
TGCGCAACAACTTGCGCTGTGGGTGTATGTCTAGAA,57.9
CGTCCTAGTGATTGTGGGGTGGGTGCCATGAGGAAG,86
CATACCCAACCTTTTCACGTGCCGTAAGATATTTGT,1300
GACAATTTGATTTATGACCTGATTCACAGAATTCGC,74.4
GAAGGTTCCCGGTCCGTTGTGATGGGAAGATCTGAC,61
AAAGCGGTAATTTGTCACATCACTTCACATATCTAT,83
CTTTCCCGATCTTGTCACTCTACTTTAGCACATTTG,73.1
AAAGCGGTAATTTGTCACCTAACTTCACATATCTAT,71
ACAACAACATTATACAACGTGGTAACCAAATTTTTC,162

# Mixed results
Substance,target,assay,system,setting,how to read,quantity,result
"PhoQ, residues 284 288 289 292 302 303 SNGLAW","PhoP, residues 12 14 15 18 19 QYCSL (Escherichia coli, UniProt P23836)","Sort-seq, refers to: YFP reporter",E. coli,"PhoQ-PhoP variant library, added: 10 µM Mg2+","reference: high Mg2+ state, higher = stronger signaling",fold induction,9.09

# Excerpt of the above (series 2):
Oligonucleotide,RBNS enrichment (R)
UCUAUCCCAGUUGGGUUCAGACUGCUGUGACUGUGGACACGAUGCUCCUUGUUCUGGGCUCCAGUUUUCCCAUUUGUGAGAUGAGGCAACUUCCAAUGCUUCUCUAGGCC,0.209
AUCUUGGAGAACCACAAUGGAUUCUUCUGUCUCUAUACUUUCUGGGGUUCUUUCCCCUCCCUCUCAUGAGAGUAAAGUCCCCAGCAGAUUUGAGUGAGUCAGGGGAAACA,0.369
UUGAGACAAUUUCUCUCUUGUUGCCUAGGCAGUGCAGUGGCGCGAUCUCAGCUCCCUGCAACUUCUGCCUCCCAGGUUCAAGCGAUUCUCCUGCCUUAGCCUCCUGAGUA,0.182
